Assay results pooled from the literature.
Each line is one published result; not all experiments were run side by side. “And” joins repeats or separate records; there may be more than shown. Numbers after ± are the reported error.
UniProt Q13547, sequence (whole entry, looked up): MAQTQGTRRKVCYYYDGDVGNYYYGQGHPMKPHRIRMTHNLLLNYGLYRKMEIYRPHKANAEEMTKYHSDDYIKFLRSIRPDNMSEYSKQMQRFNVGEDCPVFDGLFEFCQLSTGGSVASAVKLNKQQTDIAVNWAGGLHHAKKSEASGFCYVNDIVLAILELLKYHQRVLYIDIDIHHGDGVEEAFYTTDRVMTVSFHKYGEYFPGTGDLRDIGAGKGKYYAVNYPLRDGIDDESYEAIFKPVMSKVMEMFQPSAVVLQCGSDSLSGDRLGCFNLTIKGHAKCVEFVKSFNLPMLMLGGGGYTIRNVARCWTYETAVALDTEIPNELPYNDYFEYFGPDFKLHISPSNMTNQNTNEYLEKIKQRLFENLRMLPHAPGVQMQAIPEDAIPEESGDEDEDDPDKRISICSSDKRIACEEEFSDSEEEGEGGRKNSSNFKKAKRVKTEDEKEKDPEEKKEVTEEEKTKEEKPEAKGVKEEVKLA

Structure (SMILES) | tested on | assay | test system | conditions | scale | quantity | result
CN(C)CC[C@@H](c1ccc(Cl)cc1)c1ccccn1 | Plasmodium falciparum | – | GB4 | – | – | IC50 | 1 µM
Nc1nc(CC(O)c2ccc(Cl)cc2)c(Br)c(=O)[nH]1 (stereo not drawn) | HeLa | cell morphology alteration | – | – | – | minimum cytotoxic concentration | > 100 µM
COC(=O)c1c(-c2cc(OC)c(OC)c(OC)c2)c2ccc(OCc3ccccn3)cc2c(=O)n1-c1ccc(N)cc1 | Plasmodium falciparum | – | Dd2 | – | – | IC50 | 2.51 µM
Oc1ccc(C2(c3ccc(O)cc3)c3ccccc3-c3ccccc32)cc1 | HepG2 spheroids, dissociated | annexin V-FITC/PI flow cytometry | – | 10 µM, 96 h | – | early apoptotic cells | 6.09 ± 5.03%
CC(C)C[C@H](NC(=O)[C@H](C)NC(=O)[C@@H](NC(=O)[C@H](CCCNC(=N)N)NC(=O)[C@H](CC(C)C)NC(=O)[C@H](Cc1c[nH]c2ccccc12)NC(=O)[C@@H]1CCCN1C(=O)[C@@H](N)CCCCN)C(C)C)C(=O)N[C@@H](CS)C(=O)N1CCC[C@H]1C(=O)NCC(=O)O | H9c2 | WST-1 | – | 32 µM, 24 h | – | viability | 98.5% and 101% and 111%
CC(C)C[C@H](NC(=O)[C@H](CCCNC(=N)N)NC(=O)[C@H](Cc1c[nH]c2ccccc12)NC(=O)[C@H](CCCNC(=N)N)NC(=O)[C@H](Cc1c[nH]c2ccccc12)NC(=O)[C@H](Cc1c[nH]c2ccccc12)NC(=O)[C@H](Cc1c[nH]c2ccccc12)NC(=O)[C@H](CCCNC(=N)N)NC(=O)[C@H](Cc1c[nH]c2ccccc12)NC(=O)[C@@H](N)CCCNC(=N)N)C(N)=O | PK-15 | – | – | – | – | LC50 | 344 µM
CC(=O)c1cccc(NC(=O)c2cc3c(=O)n4ccccc4nc3n2C)c1 | Vero | MTT | – | 0.4 µM, 24 (unit not given) | – | viability | 93.2%
C[C@H]1CN(c2n[nH]c3nc(N[C@H]4CC[C@H](NS(=O)(=O)CCC(F)(F)F)CC4)ncc23)CCO1 | Histone deacetylase 1 (HDAC1, Homo sapiens, UniProt Q13547) | inhibitor, Kinobeads competition profiling | – | 0.032 µM | baseline: vehicle | relative abundance | 1.07
O=c1ccc2ccccc2o1 | HepG2 | refers to: cell count | – | 24 h, phospholipidosis and steatosis panel | – | point of departure | 554 µM
C[S+](C)[O-] | U138 | – | – | concentration not given, 4 days | baseline: mock | lowest significantly cytotoxic concentration | ≥ 1%
C#CCNS(=O)(=O)c1ccc(CCN(Cc2cc(Cl)ccc2OCCC)C(=O)Cc2ccsc2)cc1 | THP-1 ASC-GFP monocytes | MTT | – | 24 h | – | maximum tolerated dose | 3.11 µg/mL
O=S(=O)(c1ccc(O)cc1)c1ccc(O)cc1 | HepG2 spheroids | annexin V-FITC/PI flow cytometry | – | 10 µM, 96 h | – | necrotic cells | 36.8 ± 11.5%
CC(C)C[C@H](NC(=O)OCc1ccccc1)C(=O)N[C@H](C=O)C[C@@H]1CCCNC1=O | RD | cytotoxicity | – | – | – | CC50 | > 100 µM
Oc1ccc(C(c2ccc(O)cc2)(C(F)(F)F)C(F)(F)F)cc1 | HepG2 spheroids, dissociated | annexin V-FITC/PI flow cytometry | – | 10 µM, 24 h | – | viable cells | 73.5 ± 7.34%
CC[C@H](C)[C@H](NC(=O)CNC(=O)[C@H](CC(N)=O)NC(=O)[C@H](Cc1ccc(O)cc1)NC(=O)[C@H](CO)NC(=O)CNC(=O)[C@H](CCCNC(=N)N)NC(=O)[C@H](CCC(N)=O)NC(=O)[C@H](Cc1ccccc1)NC(=O)[C@H](Cc1ccccc1)NC(=O)[C@H](Cc1c[nH]cn1)NC(=O)[C@H](Cc1ccccc1)NC(=O)[C@@H](N)Cc1c[nH]c2ccccc12)C(=O)O | HUVEC | cytotoxicity, MTT | – | 24 h, 37 °C | – | IC50 | > 200 µM

A few entries again:
Structure (SMILES) | tested on | assay | test system | conditions | scale | quantity | result
CC[C@H](C)[C@H](NC(=O)CNC(=O)[C@H](CC(N)=O)NC(=O)[C@H](Cc1ccc(O)cc1)NC(=O)[C@H](CO)NC(=O)CNC(=O)[C@H](CCCNC(=N)N)NC(=O)[C@H](CCC(N)=O)NC(=O)[C@H](Cc1ccccc1)NC(=O)[C@H](Cc1ccccc1)NC(=O)[C@H](Cc1c[nH]cn1)NC(=O)[C@H](Cc1ccccc1)NC(=O)[C@@H](N)Cc1c[nH]c2ccccc12)C(=O)O | HUVEC | cytotoxicity, MTT | – | 24 h, 37 °C | – | IC50 | > 200 µM
